Published values pooled from the literature.
Values joined by “and” are separate records of one study, mostly repeats; a detail may differ.
ABL1: Tyrosine-protein kinase ABL1 (ABL1, Homo sapiens, UniProt P00519)
ABL1 T315I: Tyrosine-protein kinase ABL1 (ABL1, Homo sapiens, UniProt P00519, T315I)

N[C@H]1CC[C@H](Nc2nccc(-c3cccnc3Oc3ccc(NC(=O)NC4CC4)c4ccccc34)n2)CC1
log2 LFQ intensity (ABL1; kinobead competition pulldown; HEK293/HCT116 lysate mixture; 10 µM, 1 h, 4 °C; lower = stronger competition): 23.1 and 23.3

O=C(Nc1ccc(Oc2ncnc3[nH]cc(-c4ccccc4)c23)c(F)c1)c1c2n(n(-c3cc(F)ccc3F)c1=O)CCCC2
inhibition (ABL1; enzyme activity, inhibitor; 0.5 µM): 32%

CN1CCN(Cc2ccc(NC(=O)c3cccc(C#Cc4cnc(N)c5ncccc45)c3)cc2C(F)(F)F)CC1
remaining binding (Tyrosine-protein kinase ABL1, phosphorylated (ABL1, Homo sapiens, UniProt P00519); cell-free assay, competition with immobilised ligand; 50 nM): 1.3%

COc1c(OCCCN2CCOCC2)ccc2c1N=C(NC(=O)c1cnc(N)nc1)N1CCN=C21
remaining activity (ABL1; kinase activity, inhibitor; 1 µM; relative to: untreated control): 106%

CN1CCN(c2ccc(Nc3ncc(Cl)c(Nc4ccccc4P(C)(C)=O)n3)cc2Br)CC1
inhibition (ABL1; enzyme activity, inhibitor; 0.1 µM): 1.4%

O=C(Cc1ccc(OCc2ccccc2)cc1)NC1(C(=O)O)CCN(C(=O)c2ccc(-c3cccc(Cl)c3)cc2)CC1
activity vs control (ABL1; enzyme activity, inhibitor; 10 µM): 105%

COc1cc(OC)c(F)c(/C=C/c2cnc3ccn(S(=O)(=O)c4cn(CCF)cn4)c3n2)c1F
inhibition (ABL1; 10 nM): 0%

CNC(=O)C[C@H](Cc1ccc(C#N)cc1)NC(=O)c1cc(-c2ccc(CN[C@H](C)c3ccc(C)cc3)o2)ccc1Cl
activity vs control (ABL1; enzyme activity, inhibitor; 1 µM): 95%

C[C@H]1CN(C(=O)c2cn(-c3ccnc(N)n3)c3cc(C#CC4(O)CCCCC4)ccc23)CCN1
inhibition (ABL1; enzyme activity, inhibitor, FRET; 1 µM): -1%

C=CS(=O)(=O)Oc1ccc(OC)c(-c2c[nH]c3ncc(-c4cncc(C(=O)N(C)C)c4)cc23)c1
kinact (ABL1; cell-free assay, inhibitor, mass spectrometry): 0.00066 s⁻¹

COCC12C(=O)NC3C4(C(OC)CC1O)C1CC5(O)C(OC)C(O)C(OC(C)=O)(C1C5OC(=O)c1ccccc1)C3(O)C(OC)C24 (centres unmarked)
remaining activity (ABL1 T315I; kinase activity, inhibitor, ProQinase kinase profiling; 25 µM; relative to: control): 115% and 121%

O=C=[N][Ru-4]123([n]4c5ccc(O)cc5c5c6c(c7cc(F)c[n+]1c7c54)C(=O)NC6=O)[S+]1CC[S+]2CC[S+]3CC1 (centres unmarked)
remaining activity (ABL1; enzyme activity; 100 nM, human enzyme, together with: 10 µM ATP; relative to: untreated): 101%

NC(=O)[C@@H](O)C[C@H]1CCc2sc3ncnc(O[C@H]4CC[C@H](N5CCOCC5)CC4)c3c21
inhibition (ABL1; enzyme activity, inhibitor; 10 µM): 20%

Nc1ncc(-c2cc(-c3cnn(CC(F)(F)F)c3)ncc2F)nc1C(=O)NC1CNCC(F)C1 (centres unmarked)
remaining activity (ABL1; enzyme activity; 1 µM; relative to: DMSO control): 102%

COc1ccc(NC(=O)Nc2ccc3c(c2)C(=O)N(C(C)CO)CC(C)C(CN(C)Cc2ccc4c(c2)OCO4)O3)cc1 (centres unmarked)
remaining activity (ABL1; kinase activity; 0.03 µM; relative to: control): 83%

Cc1cccc(O[C@H]2CCC[C@@H](C(C)CNCc3ccncc3)C2)c1 (relative stereo)
inhibition (ABL1; enzyme activity, inhibitor; 10 µM): -21%

C=CC(=O)Nc1cccc(-c2cnc3[nH]cc(C(=O)NC(C)(C)C)c3n2)c1
inhibition (ABL1; kinase activity; 0.1 µM): 15% and 19%

CCN1CCN(Cc2ccc(NC(=O)c3ccc(C)c(NC(=O)c4cncc(-c5cccs5)c4)c3)cc2C(F)(F)F)CC1
remaining binding (ABL1 (Homo sapiens, UniProt P00519, Q252H); binding, competition with immobilised ligand; 1 µM): 0.45%

COc1c(Cl)cccc1Nc1c(-c2ccncc2C#C[C@@]2(C)CCCN2C(=O)/C=C/CN(C)C)[nH]c2c1C(=O)NCC2
remaining binding (ABL1 (Homo sapiens, UniProt P00519, E255K); binding, competition with immobilised ligand; 3 µM): 65%

O=c1c(-c2ccc(Cl)c(CN3CCOCC3)c2)coc2cc(O)ccc12
remaining activity (ABL1 T315I; enzyme activity, inhibitor; 1 µM): 95%
